Measurements pooled from the literature.
Each line is one published result; not all experiments were run side by side. Numbers after ± are the reported error.

| SMILES | test | test system | conditions | how to read | endpoint | value |
| --- | --- | --- | --- | --- | --- | --- |
| [3H]c1sc(C)nc1C=C(C)C1CC2C(CCCC(C)C(O)C(C)C(=O)C(C)(C)C(O)CC(=O)O1)N2CCO (stereo not shown) | LC-MS/MS | tumour-bearing CD2F1 mice, plasma | intravenous, 2.2 nmol/kg, 24 h |  | plasma concentration | 13.5 ± 2 ng/mL |
| CCCC[C@H]1C(=O)N(C)[C@@H](CCCC)C(=O)N[C@@H](CCCNC(=O)CN2CCN(CC(=O)O)CCN(CC(=O)O)CCN(CC(=O)O)CC2)C(=O)N[C@H](C(=O)NCC(N)=O)CSCC(=O)N[C@@H](Cc2ccc(O)cc2)C(=O)N(C)[C@@H](C)C(=O)N[C@@H](CC(N)=O)C(=O)N2CCC[C@H]2C(=O)N[C@@H](Cc2c[nH]cn2)C(=O)N[C@@H](CC(C)C)C(=O)N(C)CC(=O)N[C@@H](Cc2c[nH]c3ccccc23)C(=O)N[C@@H](CO)C(=O)N[C@@H](Cc2c[nH]c3ccccc23)C(=O)N1C [gallium-68 labelled] |  | NOD/SCID mice, CHO-hPD-L1 xenograft, tumour over muscle | iv, dose not given, 120 min | reference: tumour over muscle | tissue-to-tissue ratio | 18.9 ± 9.35 |
| CC[C@H](C)C(=O)N1CCC(NC(=O)Nc2ccc(OC(F)(F)F)c(F)c2)CC1 |  | healthy volunteers | oral, 8 mg single tablet, fasted and fed states |  | tolerability | not toxic |
| CCCCCCCCCCCCC(=O)O.O=C1CCCC2C3CCCN4CCCC(CN12)C34 (stereo not shown) | electrical conductivity | water | 303.15 K |  | standard enthalpy of aggregation | -0.626 kcal/mol |
| CCN(Cc1ccccc1)C(=O)CCc1nc(CN2CCN(C(=O)Cc3ccc(OC)c(OC)c3)CC2)no1 |  | rat, plasma | intravenous, 1 mg/kg, 1 h |  | concentration | 6.05 ng/mL |
| COc1cc(NC(=O)C(=O)c2c(C)n(Cc3ccc(Cl)cc3)c3ccc(C)cc23)ccn1 |  | cynomolgus monkey, plasma | oral, 10 mg/kg |  | AUC | 3260 ng·h/mL |
| CCCCCc1ccc(S(=O)(=O)N2CC2C(=O)OC)cc1 (stereo not shown) |  | rodent | oral, estimated from 3T3 IC50 |  | LD50 | 530 ± 45 mg/kg |
| CN(C)C(CNC(=O)Nc1cc(C(F)(F)F)ccc1N1CCOCC1)c1ccncc1 (stereo not shown) |  | mouse, serum | intraperitoneal, 180 mg/kg single dose |  | serum cholesterol | 76 mg/dL |
| CC[C@@H](C)[C@@H](NC(=O)[C@@H](C)NC(=O)[C@@H](CCCCN)NC(=O)[C@@H](CC(C)C)NC(=O)[C@@H](C)NC(=O)[C@H](NC(=O)[C@@H](Cc1c[nH]cn1)NC(=O)[C@@H](CC(C)C)NC(=O)[C@H](NC(=O)[C@H](NC(=O)[C@@H](CCCCN)NC(=O)[C@@H](CCCCN)NC(=O)[C@@H](C)NC(=O)[C@@H](CO)NC(=O)[C@@H](CCCCN)NC(=O)[C@@H](Cc1ccccc1)NC(=O)[C@H](NC(=O)[C@@H](CCCCN)NC(=O)[C@@H](CC(C)C)NC(=O)[C@@H](Cc1ccccc1)NC(=O)[C@@H](CO)NC(=O)[C@@H](CCCCN)NC(=O)[C@@H](Cc1c[nH]c2ccccc12)NC(=O)[C@@H](CCCCN)NC(C)=O)[C@H](C)O)[C@H](C)O)C(C)C)[C@H](C)O)C(=O)N[C@H](CO)C(=O)N[C@H](CO)C(N)=O | circular dichroism | aqueous phosphate buffer | pH 7.0, 5 °C, at 222 nm |  | mean residue ellipticity | 1150 deg cm²/dmol |
| COc1ccc2c3c(c4cc(OC)c(OC)cc4c2c1)CN1CCCC1C3OC(C)=O (stereo not shown) |  | swine cells | 24 (unit not given) |  | CC50 | > 100 µM |

Repeated from above:
| SMILES | test | test system | conditions | how to read | endpoint | value |
| --- | --- | --- | --- | --- | --- | --- |
| COc1ccc2c3c(c4cc(OC)c(OC)cc4c2c1)CN1CCCC1C3OC(C)=O (stereo not shown) |  | swine cells | 24 (unit not given) |  | CC50 | > 100 µM |
